Assay results of several laboratories.
Every numbered part comes from another study and shows a few of its results, in no order. Substitutions count along the parent as printed.

Sample 1
Target: Histone acetyltransferase KAT6A, winged helix 1, GST fusion (KAT6A, Homo sapiens, UniProt Q92794, residues 1-85)
Method: protein binding microarray
Form: double-stranded DNA, one strand shown
Medium: in vitro
Tested at: not given
Setting: 8-mer, flanks averaged, mean of 2 arrays, mostly near background
Reference: not given
Direction: higher = stronger binding
Construct (chain): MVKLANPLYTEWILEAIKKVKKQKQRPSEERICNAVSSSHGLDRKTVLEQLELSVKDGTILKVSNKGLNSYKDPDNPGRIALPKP
Strand	E-score
ACCAATCG	-0.0866
CTGCTCTA	-0.0303
ACGAGTTC	-0.22
GATTTGCA	-0.184
ACGTGAGG	-0.178
GCTGTGAC	0.085
GGCAAACA	0.0481
CAACTGGG	-0.211
AAGGCGCC	0.306
GCTGTACA	0.011
CTTGCAGC	0.0887
CCTGCTGC	-0.0454
AATAGAAT	-0.294
GTTGGGCA	-0.0768
ACCGGTGG	0.111
CGCAGGCG	0.263
ACTTTATA	-0.0844
ATCCTCTG	-0.288
CCCTAATC	-0.195

Sample 2
Target: Centromere-binding protein 1, full length, His-tagged (CBF1, Saccharomyces cerevisiae, UniProt P17106, residues 1-351)
UniProt P17106, sequence (whole entry, looked up): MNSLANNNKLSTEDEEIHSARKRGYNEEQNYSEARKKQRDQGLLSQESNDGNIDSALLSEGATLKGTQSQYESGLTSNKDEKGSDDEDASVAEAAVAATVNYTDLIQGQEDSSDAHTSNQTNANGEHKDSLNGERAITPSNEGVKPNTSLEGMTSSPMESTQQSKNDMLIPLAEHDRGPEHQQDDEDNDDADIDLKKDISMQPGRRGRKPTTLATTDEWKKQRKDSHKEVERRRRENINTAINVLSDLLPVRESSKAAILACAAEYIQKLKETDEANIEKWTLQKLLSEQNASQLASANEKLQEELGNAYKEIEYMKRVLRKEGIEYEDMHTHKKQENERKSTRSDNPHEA
Method: competition protein-binding microarray
Form: double-stranded DNA, one strand shown
Medium: in vitro
Tested at: 2 µM
Setting: whole 60-bp probe, lowest competitor level
With: Pho4 competitor, 0.05 µM
Direction: higher = stronger binding
All sequences stand within: … GTCTTGATTCGCTTGACGCTGCTG
Strand	fluorescence intensity [a.u.]
ATCTAATTGAACATTCTCGTGCGATTAAACGTCATT	103
CTTTCCCGATCTTGCTGGGTGGGTGTAGCACATTTG	75.5
GATTCTTCAGTTTAGCACGTGCCGATTTGGCCTCTT	2910
ACCAGACGAAATCGGCACGGCATTAGGAATTCGGTA	67.7
CAACAGCAGCAACATCACACGCAGAATTCACAACCA	123
CGGGGTTAAGTTTGTAGGGTGGGTGGCTTGCAGCAG	67.8
AACATTATGGAAGTCCATGTGAATAATTCACTCAAG	107
CGGGGTTAAGTTTGTTAGGTGGGTGGCTTGCAGCAG	84.9
TGCACGGAGTCTTAAAACACTCCGATTTGGATACCT	86
TGCGCAACAACTTCCCACGTGTTTTTATGTCTAGAA	1280
CCCATTCAATTCGCTCTCGTGACGGAATCGTCGGGA	336
TTTCATAGAAACAAATCCGTGATGGTTTAATGGTCA	87.1
CTAACGAAGGTTTGAGCGGTGGGTGACAAGCCAAGT	55.1
GCGGTCCCTGTCCTGCACACTGCACTCAACACCATA	53.4
AAAGCGGTAATTTGATATGTGGGTGCAGATATCTAT	75.9
CGGGGTTAAGTTTGAGGCGTGGGTGGCTTGCAGCAG	82.6
CCTGGTAGGTTTGATCTCTTGAGAGTTTGAGCTTTC	52.1
GTCTTGTCTCATTGGGCGGTGGGTGTCCCCACTTCA	78.2
CGGGGTTAAGTTTGTCACTATACTTGCTTGCAGCAG	77.8

Sample 3
Target: RNA binding protein fox-1 homolog 2, RRM domain, GST-SBP tag (RBFOX2, Homo sapiens, UniProt O43251-10, residues 100-194)
Method: RNA Bind-n-Seq
Form: RNA
Medium: in vitro
Tested at: 365 nM
Setting: natural RNA segment, single round, ends assumed
Reference: no-protein control
Direction: higher = stronger binding
All sequences stand within: GGGAGUUCUACAGUCCGACGAUC … UGGAAUUCUCGGGUGCCAA
Strand	RBNS enrichment (R)
ACCACUCUCUGCGUAUUGAUGGCAUGAUACGGUAUUGUCCUCGUAUAGAGUUAACAACUUACGAUAAAUUGCCCAAAGCUGGGCCUUGCUGUGUGUGCUCUGGACACUGU	0.396
GGUGGGAAUCCAGCCUCUGUUAGAUAUGUCCAGAGAUGGAAACUCACUCCCCUACAAAAGAUGGAGCUUAAUGGAGAAAUUGCAACUUUCAUUAAAAAACAAAUUCAGAU	6.03
GUCAUUGUCCAUUUACUAUAAUUUAUCUGACCAUUUCCCUACUGUAAAAUACUUAAGACGGUUUCUGAUUUUUCCACUAUUUAAAUAAUGCUGUGAUGAAUAUCUUUAAA	0.602
UUUUAAAAGAUCUUAAAAAUAAUGCCUCUGUCUAGCAUGCCAACAAGAAUGCAUUGAUAUUGUGAACAUUUGUGAUACAUGUAUUAAUAAAUAGAGCAAUUAAAAAUGGC	8.94
UAUUUAACUGUAAAAUGGAAUUUUGACUGAUUUGUUACAAUAAUAUAACUCUGAGAUGUGUGGAAGGGUCCAGUGCCCGGUUUCUAGGGCUAUGCAUGGAGGUGGGGUGG	3.09
UCUUCGGUUGCUUUGCACCAGUAUGGUAUGGACAUGGGGUGGACAUUUCCAGGUAAGAGGAUCAGCGGAGAUAACUAGCAAUUUGGAGGUUAGUGUUUAGCUCUACCAAA	0.784
GCUGCUCUGCACCCCUCCUGCCGGGAGGCUCUGUGUGGUUAUUGCCAGUUCUUUGUUUACUUUUCAGGUUUGUACUACAAGGUUUAAUAAUAAAAAGUUUUUUGGACAUU	0.379
CUGUCUGCCCUCCCCAGGGGUGGAGGAGUCUCUGGGCCCCAGGAGGAUUCCCUCCCGGAGACUCGCACGGUGCUCCCUGCUCACGCGUUGUCACAGUUAGUCCGGAAAUG	0.784

Sample 4
Target: CCNB1, cyclin fold, Cln2 fusion (human)
Method: yeast growth competition, sequencing
Medium: yeast
Setting: strong parent motif
Reference: not given
Direction: higher = stronger binding
Starting sequence: E2F1 docking peptide (human); PPVKRRLDLETDH
Change	normalised enrichment score
PPVKRRLDLETDR [H13R]	1.14
PCVKRRLDLETDH [P2C]	1.48
PVVKRRLDLETDH [P2V]	0.872
PPVKRRLDFETDH [L9F]	4.92
PPVKRRLDLETDA [H13A]	1.62
PPVKSRLDLETDH [R5S]	0.0837
PPVKARADLETDH [R5A L7A]	-0.253
PPVKRRLDLETQH [D12Q]	1.94
SPVKRRLDLETDH [P1S]	0.819
PPCKRRLDLETDH [V3C]	0.611
PPVKWRLDLETDH [R5W]	0.536
PPVKRRLDLRTDH [E10R]	0.571
PPVKQRLDLETDH [R5Q]	0.621
PPVKRRLDLEWDH [T11W]	1.94
YPVKRRLDLETDH [P1Y]	2.29

A few entries again (sample 1):
Strand	E-score
CTTGCAGC	0.0887
CCTGCTGC	-0.0454
AATAGAAT	-0.294
GTTGGGCA	-0.0768
ACCGGTGG	0.111
